Assay results of several laboratories.
Protocols differ between the studies behind these lines. ± marks the error that the study gave. ≈ marks a conversion by molar mass, not a printed value.

Compound | test | system | conditions | how to read | endpoint | value
O=C(O[C@@H]1Cc2c(O)cc(O)cc2O[C@@H]1c1cc(O)c(O)c(O)c1)c1cc(O)c(O)c(O)c1 |  | human intestinal cytosol |  | relative to: sulfation over glucuronidation | clearance ratio | 63 fold
Cc1ccc(NCCNc2ccc(F)c(Cl)c2)cc1S(=O)(=O)N1CCOCC1 |  | water |  |  | kinetic solubility | 39 µM (≈ 16.7 µg/mL)
CCn1c(=O)n(CCO)c(=O)c2c1nc(/C=C/c1ccc(OC)c(OC)c1)n2C |  | healthy humans, plasma | oral, 40 mg, with: rifampin 600 mg/day | relative to: without rifampin | change in AUCinf | -70%
CC[C@H](C)[C@H](NC(=O)[C@H](CCCCN)NC(=O)[C@@H](NC(=O)[C@H](CS)NC(=O)[C@H](CCCNC(=N)N)NC(=O)[C@H](CCCNC(=N)N)NC(=O)[C@H](CC(N)=O)NC(=O)[C@H](CCCNC(=N)N)NC(=O)[C@H](CCCNC(=N)N)NC(=O)[C@H](CS)NC(=O)[C@@H](NC(=O)[C@H](CO)NC(=O)[C@@H](NC(=O)[C@@H](NC(=O)[C@H](CS)NC(=O)[C@H](CCCCN)NC(=O)[C@@H](N)CCCNC(=N)N)C(C)C)[C@@H](C)CC)C(C)C)[C@@H](C)CC)C(=O)N[C@@H](CC(C)C)C(=O)N[C@@H](CS)C(=O)N[C@@H](CC(N)=O)C(=O)O | LC-MS | PBS | 0.1 mg/mL |  | single disulfide form | 59%
C[C@](C#N)(COc1cc(C#N)ccc1C(F)(F)F)NC(=O)c1ccc(S(=O)(=O)C(F)(F)F)cc1 |  | calves, plasma | oral, 2.5 mg/kg of monepantel |  | last detectable time | ≤ 216 h
CCCC[C@@H]1NC(=O)[C@@H](NC(=O)[C@H](CCC(=O)O)NC(=O)CNC(=O)CN2CCN(CC(=O)O)CCN(CC(=O)O)CCN(CC(=O)O)CC2)CCCCNC(=O)C[C@@H](C(N)=O)NC(=O)[C@H](C(C)C)NC(=O)[C@@H]2CCCN2C(=O)[C@H](CCCNC(=N)N)NC(=O)CNC(=O)[C@H](Cc2c[nH]c3ccccc23)NC(=O)[C@H](CCCNC(=N)N)NC(=O)[C@@H](Cc2ccccc2)NC(=O)[C@H](Cc2c[nH]cn2)NC(=O)[C@H](CCC(=O)O)NC1=O [gallium-67 labelled] |  | C57 mice with B16/F1 melanoma | intravenous, 0.037 MBq/mouse, 24 h | relative to: tumour over lung | tumour to lung ratio | 50.2
Cn1c(=O)oc2ccc(-c3ccc(CC(C#N)NC(=O)C4CNCCCO4)c(F)c3)cc21 (stereo not drawn) |  | human | oral, 10 mg once daily, TEAE, multiple ascending dose |  | triglycerides increased incidence | 66.7%
COC(=O)C1OC(Oc2c(-c3ccccc3)oc3cc(O)c(O)c(O)c3c2=O)C(O)C(O)C1O (stereo not drawn) |  | BALB/c mouse, kidney | 5 mg/kg |  | organ weight | 1.25 ± 0.6 g
CC(C)c1cnc(-c2cc(Cl)ccc2F)cc1Nc1ccncc1C(=O)NC(CO)CO | item: hypotension | human patients | oral, dose not given, grade 2 |  | patients with related SAE | 0%
Cc1cc2c(cc1C1(c3ncc(C(=O)O)cn3)CC1)C(C)(C)CCC2(C)C |  | Sprague-Dawley rat, male, plasma | oral, 100 mg/kg, 12 h, sesame oil vehicle |  | LDL level | 5 ± 1.5 mg/dL
Cc1ccc(/N=N/c2c(O)ccc3ccccc23)c(C)c1 |  | extracted rat blood QC samples | 0.5 µg/L, 2 h, room temperature, short-term stability |  | measured concentration | 0.486 µg/L
C[Si](C)(C)C[C@@H](CN)CC(=O)O | neuromuscular coordination | Wistar rat male | oral, 300 mg/kg, 3 h |  | performance time | 180 s
COc1cc2c(cc1OC)CN(CCCCn1ccc3cc(OCC[18F])ccc31)C2 |  | ICR mice, male, small intestine | intravenous, 60 min |  | uptake | 18.1 ± 1.2 %ID/organ
CC(C)[C@H](NC(=O)CNC(=O)[C@H](CCC(N)=O)NC(=O)[C@H](C)N)C(=O)O | LC-MS/MS | human, male, plasma | intravenous, 20 mg/kg three times daily, day 1, first dose, 10 min infusion, geometric mean |  | half-life | 8.4 min
CC(C)(F)CC(NC(c1ccc(-c2ccc(S(C)(=O)=O)cc2)cc1)C(F)(F)F)C(=O)NCC#CBr (stereo not drawn) | LC-MS UV trace | aqueous buffer | 23 h, pH 7.5, 37 °C, with: GSH 5 mM |  | GSH adduct formation | 47%
Cc1ccc(C(C)C)cc1.O=C(N=P(c1ccccc1)(c1ccccc1)c1ccccc1)c1ccccn1.[Cl-].[Cl-].[Ru+2] | ICP-MS, item: ruthenium | NOD.CB17-Prkdc scid/J mouse, plasma | intraperitoneal, 5 mg/kg, after first dose |  | absorption half-life | 30 min
COc1cccc(CNC[C@](O)(COCc2ccccc2)[C@@H]2CC[C@@H](C)C[C@H]2OCc2ccccc2)c1 |  | PBS | 2 h, pH 7.4 |  | kinetic solubility | 40.9 µM (≈ 20.6 µg/mL)
COc1ccc2cc(-c3ccc(-c4ccc(C)cn4)nc3)oc2c1 | TCSPC | water, HEPES 100 mM | pH 7.4 |  | fluorescence lifetime | 2.48 ns

Compound | test | system | conditions | how to read | endpoint | value
C#CCOc1ccc(/C=C2\SC(=O)N(CC(=O)NCc3ccccc3)C2=O)cc1 | inverse Kirkwood-Buff integrals | binary solvent mixture | 298.15 K, mole fraction x1 0.05 |  | Kirkwood-Buff integral G1,3 | -651 cm³/mol
N=C(N)NCCC[C@@H]1NC(=O)[C@H](Cc2c[nH]c3ccccc23)NC(=O)[C@@H](CC2CCCCC2)NC(=O)[C@@H]2CCCN2C(=O)[C@@H](NC(=O)CCc2ccccc2)CCCNC1=O | two-compartment model | C57BL/6J mice, plasma | oral, 1 mg/kg |  | beta rate constant | 0.03 min⁻¹
Cc1ccc(OCC(=O)O)cc1 |  | Sprague-Dawley rat Crl:CD(SD), male, plasma | oral, 10 mg/kg/day of parent drug, day 1, 90-day repeated dosing |  | Cmax | 1820 ± 494 ng/mL
CCNC(=O)OCc1c(COC(=O)NCC)c(-c2ccc(OC)cc2)n2c1Cc1ccccc1-2 |  | BALB/c nude mice, blood | dose not given, day 10 |  | haematocrit | 43.1 ± 1.1%
COc1ccc(S(=O)(=O)N/N=C/c2ccc(C#N)cc2)cc1OC |  | buffer | pH 2, 37 °C |  | chemical stability | unstable
COC(=O)c1ccc(-c2cn(Cc3cc(Cl)ccc3O[11CH3])nn2)cc1 | PET, one-tissue compartment model | rhesus monkey, brain NAc | dose not given |  | distribution volume | 0.684 mL/cm³
COCC1CN(C2CCN(c3cc(OC)c(Nc4ncc(Br)c(Nc5ccc6c(c5P(C)(C)=O)OCCO6)n4)cc3C)CC2)C1 |  | human patients | oral, dose not given |  | grade ≥3 treatment-related hypercalcemia | 3.7%
CCCC[C@H](NC(C)=O)C(=O)N[C@H]1CC(=O)NCCCC[C@@H](C(=O)N[C@@H](C(=O)N2CCC[C@@H]2C(N)=O)C(C)C)NC(=O)[C@H](Cc2c[nH]c3ccccc23)NC(=O)[C@H](CCCN=C(N)N)NC(=O)[C@@H](Cc2ccc3ccccc3c2)NC(=O)[C@@H]2CCCN2C1=O |  | Beagle dog, both sexes, plasma | subcutaneous, once daily, 2.25 mg/kg, day 5 |  | volume of distribution | 2410 ± 327 mL
CCCCCCCC(=O)C(=O)C(O)CO (stereo not drawn) | pressure-area isotherm | Escherichia coli lipid monolayer | 68 Å^2 per lipid, in subphase |  | surface pressure increase | ~26%
N[C@H]1CC[C@H](CNc2ncc(Cl)c(Nc3cc(C4CC4)[nH]n3)n2)CC1 |  | Oct1/2 knockout mouse | dose not given | relative to: without ABT over with ABT | blood clearance change | -28.2%
C[Si](C)(C[C@@H](CN)CC(=O)O)C1CC1 | neuromuscular coordination | Wistar rat male | oral, 300 mg/kg, 1 h |  | performance time | 180 s
CCCC(CCC)NC(=O)c1ccc(OC2OC(C(=O)O)C(O)C(O)C2O)c(OC)c1 (stereo not drawn) |  | female Sprague-Dawley rats, plasma | oral, 200 mg/kg of parent drug | relative to: 200 over 20 mg/kg dose | AUC(0-last) ratio | 5.49
Oc1ccc2ccccc2c1/N=N/c1ccc(/N=N/c2ccccc2)cc1 |  | rat whole blood | 16.0 µg/L, freeze-thaw cycle 2 |  | freeze-thaw stability deviation | 0.3%
CC(C)NC(=O)N1CCC=C(c2cc3c(Nc4cc5ncsc5cc4F)ncnc3s2)C1 |  | human liver microsomes | 1 µM |  | intrinsic clearance | < 12 mL/min/g protein
[Br-].c1ccc(-c2nn(-c3nc4ccccc4s3)[n+](-c3ccccc3)n2)cc1 | chemical stability, HPLC | bovine, serum |  |  | half-life | 120 min
CC(C)(O)c1ncc([S@](N)(=O)=NC(=O)Nc2c3c(cc4c2CCC4)CCC3)s1 |  | healthy human subjects | oral, dose not given |  | subjects reporting TEAEs | 70%
COc1ccc(/C=C/c2ccc(-c3ccc(C)cn3)nc2)cc1 | TCSPC | acetonitrile | zinc-free ligand |  | fluorescence lifetime | 0.6 ns
NCC(=O)N1CCC[C@H]1C(=O)N1C[C@H](O)C[C@H]1C(=O)O | potentiometric titration |  | 40 °C, MA2 complex, with: Fe(III) |  | log beta | 23.6

A few entries again:
Compound | test | system | conditions | how to read | endpoint | value
COC(=O)c1ccc(-c2cn(Cc3cc(Cl)ccc3O[11CH3])nn2)cc1 | PET, one-tissue compartment model | rhesus monkey, brain NAc | dose not given |  | distribution volume | 0.684 mL/cm³
CCn1c(=O)n(CCO)c(=O)c2c1nc(/C=C/c1ccc(OC)c(OC)c1)n2C |  | healthy humans, plasma | oral, 40 mg, with: rifampin 600 mg/day | relative to: without rifampin | change in AUCinf | -70%
N[C@H]1CC[C@H](CNc2ncc(Cl)c(Nc3cc(C4CC4)[nH]n3)n2)CC1 |  | Oct1/2 knockout mouse | dose not given | relative to: without ABT over with ABT | blood clearance change | -28.2%
